Experimental data pooled from the literature.
Protocols differ between the studies behind these lines. ± gives the spread as reported.
Signal transducer and activator of transcription 2 SH2 domain: Signal transducer and activator of transcription 2, SH2 domain (Homo sapiens, UniProt P52630)
Chain of UniProt P52630 (whole entry, looked up): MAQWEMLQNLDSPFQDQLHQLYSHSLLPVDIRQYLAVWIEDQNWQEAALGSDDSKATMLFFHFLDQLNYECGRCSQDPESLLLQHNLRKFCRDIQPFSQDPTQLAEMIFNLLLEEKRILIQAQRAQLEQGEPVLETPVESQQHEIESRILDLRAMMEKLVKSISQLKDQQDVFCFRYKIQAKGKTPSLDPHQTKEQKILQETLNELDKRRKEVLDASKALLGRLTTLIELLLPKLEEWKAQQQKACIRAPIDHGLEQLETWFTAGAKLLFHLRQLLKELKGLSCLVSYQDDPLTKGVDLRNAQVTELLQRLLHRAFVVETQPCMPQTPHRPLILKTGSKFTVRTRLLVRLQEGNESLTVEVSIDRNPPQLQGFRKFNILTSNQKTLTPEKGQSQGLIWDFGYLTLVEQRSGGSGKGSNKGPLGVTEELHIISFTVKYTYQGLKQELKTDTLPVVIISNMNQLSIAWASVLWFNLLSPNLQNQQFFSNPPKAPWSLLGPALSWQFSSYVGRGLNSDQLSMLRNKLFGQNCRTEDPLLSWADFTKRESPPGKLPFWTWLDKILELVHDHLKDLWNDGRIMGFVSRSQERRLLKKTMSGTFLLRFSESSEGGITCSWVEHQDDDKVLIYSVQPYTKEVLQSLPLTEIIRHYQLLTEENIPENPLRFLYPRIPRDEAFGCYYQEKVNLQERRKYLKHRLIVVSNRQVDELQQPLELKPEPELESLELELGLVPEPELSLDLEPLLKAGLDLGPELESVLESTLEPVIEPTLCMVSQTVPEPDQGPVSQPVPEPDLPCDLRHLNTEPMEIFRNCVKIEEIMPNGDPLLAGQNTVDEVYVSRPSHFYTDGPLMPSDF
Chain of UniProt P00512 (whole entry, unmodified, looked up): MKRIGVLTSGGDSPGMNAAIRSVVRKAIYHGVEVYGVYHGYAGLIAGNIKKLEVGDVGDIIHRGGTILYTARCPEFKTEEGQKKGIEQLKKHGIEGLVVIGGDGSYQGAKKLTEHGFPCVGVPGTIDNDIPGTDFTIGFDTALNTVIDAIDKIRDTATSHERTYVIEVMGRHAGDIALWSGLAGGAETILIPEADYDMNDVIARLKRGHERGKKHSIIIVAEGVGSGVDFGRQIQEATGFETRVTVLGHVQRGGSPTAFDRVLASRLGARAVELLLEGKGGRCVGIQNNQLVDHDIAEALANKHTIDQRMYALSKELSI
Chain of UniProt P46109 (whole entry, looked up): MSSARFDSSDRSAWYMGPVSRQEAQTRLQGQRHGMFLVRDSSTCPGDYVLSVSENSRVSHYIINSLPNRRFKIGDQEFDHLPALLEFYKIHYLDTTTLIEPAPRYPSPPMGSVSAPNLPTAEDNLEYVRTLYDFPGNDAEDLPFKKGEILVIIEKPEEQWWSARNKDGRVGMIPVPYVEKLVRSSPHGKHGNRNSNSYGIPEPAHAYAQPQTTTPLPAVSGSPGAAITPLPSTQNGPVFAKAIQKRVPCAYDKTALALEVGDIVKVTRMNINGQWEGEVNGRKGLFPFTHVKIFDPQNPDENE
Chain of UniProt P50750 (whole entry, looked up): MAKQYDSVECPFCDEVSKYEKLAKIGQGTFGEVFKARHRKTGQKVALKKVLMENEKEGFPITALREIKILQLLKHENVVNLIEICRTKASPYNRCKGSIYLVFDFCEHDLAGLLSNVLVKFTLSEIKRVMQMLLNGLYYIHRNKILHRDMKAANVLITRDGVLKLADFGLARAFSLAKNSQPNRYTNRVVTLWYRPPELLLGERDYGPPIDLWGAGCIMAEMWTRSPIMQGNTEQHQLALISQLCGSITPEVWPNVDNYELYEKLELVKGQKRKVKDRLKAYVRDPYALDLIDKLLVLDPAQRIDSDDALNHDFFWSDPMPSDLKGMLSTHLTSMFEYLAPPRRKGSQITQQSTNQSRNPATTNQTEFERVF
Chain of UniProt A8C927 (whole entry, looked up): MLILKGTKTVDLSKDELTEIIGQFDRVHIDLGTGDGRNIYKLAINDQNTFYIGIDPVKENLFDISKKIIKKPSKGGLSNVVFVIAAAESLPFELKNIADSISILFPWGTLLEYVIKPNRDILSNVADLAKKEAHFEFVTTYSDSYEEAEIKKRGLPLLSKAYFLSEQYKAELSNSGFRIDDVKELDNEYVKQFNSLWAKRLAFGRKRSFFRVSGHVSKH
Chain of UniProt P02716 (whole entry, looked up): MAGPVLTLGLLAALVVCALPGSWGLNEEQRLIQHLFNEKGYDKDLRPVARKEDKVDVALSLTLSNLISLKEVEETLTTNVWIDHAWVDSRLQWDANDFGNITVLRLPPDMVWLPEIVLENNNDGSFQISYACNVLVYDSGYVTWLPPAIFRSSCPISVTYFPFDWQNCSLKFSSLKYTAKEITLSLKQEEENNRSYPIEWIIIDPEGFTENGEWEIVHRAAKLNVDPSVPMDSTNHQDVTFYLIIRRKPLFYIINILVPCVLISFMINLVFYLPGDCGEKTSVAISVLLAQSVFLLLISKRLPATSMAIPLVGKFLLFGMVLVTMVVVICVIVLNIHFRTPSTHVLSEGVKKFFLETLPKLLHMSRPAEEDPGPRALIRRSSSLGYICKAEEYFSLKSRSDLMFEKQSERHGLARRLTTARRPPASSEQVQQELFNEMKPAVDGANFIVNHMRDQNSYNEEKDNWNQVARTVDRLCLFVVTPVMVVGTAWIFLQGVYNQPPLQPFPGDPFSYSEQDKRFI
Chain of UniProt P20782 (whole entry, looked up): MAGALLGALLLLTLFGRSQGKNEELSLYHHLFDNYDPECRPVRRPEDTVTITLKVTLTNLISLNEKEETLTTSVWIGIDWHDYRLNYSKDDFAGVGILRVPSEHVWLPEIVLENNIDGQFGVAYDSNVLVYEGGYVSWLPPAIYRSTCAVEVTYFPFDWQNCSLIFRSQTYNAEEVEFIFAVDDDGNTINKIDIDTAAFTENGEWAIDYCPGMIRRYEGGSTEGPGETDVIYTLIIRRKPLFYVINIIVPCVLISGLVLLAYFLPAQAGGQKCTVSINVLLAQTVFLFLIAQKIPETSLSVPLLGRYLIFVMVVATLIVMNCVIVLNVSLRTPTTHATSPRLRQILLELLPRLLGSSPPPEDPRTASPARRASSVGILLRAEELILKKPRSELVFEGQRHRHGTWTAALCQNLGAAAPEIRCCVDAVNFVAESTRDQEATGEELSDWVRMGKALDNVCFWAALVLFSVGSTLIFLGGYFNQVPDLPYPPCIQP
Chain of UniProt P08510 (whole entry, unmodified, looked up): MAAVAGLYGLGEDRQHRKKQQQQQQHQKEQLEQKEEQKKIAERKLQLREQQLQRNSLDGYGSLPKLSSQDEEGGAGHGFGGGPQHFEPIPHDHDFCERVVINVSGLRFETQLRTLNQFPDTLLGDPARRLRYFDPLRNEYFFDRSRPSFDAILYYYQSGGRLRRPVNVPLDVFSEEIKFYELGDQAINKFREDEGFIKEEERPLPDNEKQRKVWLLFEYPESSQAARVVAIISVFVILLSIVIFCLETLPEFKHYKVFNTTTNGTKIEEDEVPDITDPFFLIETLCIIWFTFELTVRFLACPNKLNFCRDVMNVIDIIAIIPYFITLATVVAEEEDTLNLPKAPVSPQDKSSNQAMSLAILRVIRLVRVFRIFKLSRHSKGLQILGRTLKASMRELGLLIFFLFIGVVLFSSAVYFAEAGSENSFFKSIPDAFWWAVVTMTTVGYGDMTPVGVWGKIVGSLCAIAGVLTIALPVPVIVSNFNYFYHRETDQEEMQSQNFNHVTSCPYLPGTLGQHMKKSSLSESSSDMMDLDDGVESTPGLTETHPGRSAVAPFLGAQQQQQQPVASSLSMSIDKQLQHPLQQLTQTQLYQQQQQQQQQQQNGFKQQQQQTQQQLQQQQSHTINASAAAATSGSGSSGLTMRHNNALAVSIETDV
Chain of UniProt P24752 (whole entry, looked up): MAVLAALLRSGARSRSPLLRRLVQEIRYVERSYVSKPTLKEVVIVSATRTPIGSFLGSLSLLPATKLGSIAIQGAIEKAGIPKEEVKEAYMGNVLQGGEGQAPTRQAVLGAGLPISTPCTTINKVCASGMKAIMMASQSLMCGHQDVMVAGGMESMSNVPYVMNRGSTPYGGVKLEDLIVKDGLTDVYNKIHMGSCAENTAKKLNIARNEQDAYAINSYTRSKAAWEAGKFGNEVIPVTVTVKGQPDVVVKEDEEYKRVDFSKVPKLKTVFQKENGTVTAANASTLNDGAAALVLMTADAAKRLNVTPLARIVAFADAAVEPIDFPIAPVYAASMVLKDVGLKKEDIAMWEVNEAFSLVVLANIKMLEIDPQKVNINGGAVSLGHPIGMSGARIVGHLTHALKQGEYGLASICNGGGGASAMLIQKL
Chain of UniProt P04756 (whole entry, looked up): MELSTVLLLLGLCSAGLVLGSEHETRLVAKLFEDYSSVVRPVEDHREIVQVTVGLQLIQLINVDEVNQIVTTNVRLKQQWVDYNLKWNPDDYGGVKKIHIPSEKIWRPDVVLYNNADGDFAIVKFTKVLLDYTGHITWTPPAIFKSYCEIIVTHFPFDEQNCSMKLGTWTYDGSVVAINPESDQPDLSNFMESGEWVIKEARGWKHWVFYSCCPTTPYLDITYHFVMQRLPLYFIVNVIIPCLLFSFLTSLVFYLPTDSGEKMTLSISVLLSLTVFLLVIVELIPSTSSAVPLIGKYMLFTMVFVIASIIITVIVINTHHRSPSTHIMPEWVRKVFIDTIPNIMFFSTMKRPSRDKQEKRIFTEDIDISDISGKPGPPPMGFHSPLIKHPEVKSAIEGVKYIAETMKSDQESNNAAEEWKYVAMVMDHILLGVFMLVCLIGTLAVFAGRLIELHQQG
Chain of UniProt Q92PC8 (whole entry, unmodified, looked up): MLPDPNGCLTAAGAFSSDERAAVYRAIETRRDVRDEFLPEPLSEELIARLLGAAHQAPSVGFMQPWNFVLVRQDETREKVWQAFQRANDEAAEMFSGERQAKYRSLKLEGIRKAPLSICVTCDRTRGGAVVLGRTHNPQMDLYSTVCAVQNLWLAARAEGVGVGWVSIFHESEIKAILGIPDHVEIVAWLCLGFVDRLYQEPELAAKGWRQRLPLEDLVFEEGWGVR

SMILES = C=C(OP(=O)(O)O)C(=O)O; target = pfkA (Geobacillus stearothermophilus, UniProt P00512, S159A); Kd = 12 ± 1 µM
SMILES = CSCC[C@H](NC(=O)[C@H](Cc1ccc(OP(=O)(O)O)cc1)NC(=O)CNC(=O)CNC(=O)[C@H](CC(=O)O)NC(=O)[C@H](CO)NC(=O)[C@H](CCC(=O)O)NC(=O)CNC(=O)[C@@H](NC(=O)[C@H](CC(C)C)NC(=O)[C@H](CO)NC(=O)c1ccc2c(c1)C(=O)OC21c2ccc(N(C)C)cc2Oc2cc(N(C)C)ccc21)[C@@H](C)O)C(=O)N[C@@H](CC(=O)O)C(=O)N[C@@H](CCSC)C(=O)N[C@@H](CO)C(=O)N[C@@H](CCCCN)C(=O)N[C@@H](CC(=O)O)C(=O)N[C@@H](CCC(=O)O)C(=O)N[C@@H](CC(=O)O)C(=O)O; target = Signal transducer and activator of transcription 2 SH2 domain; assay = binding; Kd = 1.34 µM
SMILES = Cc1cc2nc3c(=O)[nH]c(=O)nc-3n(C[C@H](O)[C@H](O)[C@H](O)COP(=O)(O)O)c2cc1C; target = 5,6-dimethylbenzimidazole synthase (bluB, Rhizobium meliloti, UniProt Q92PC8, R34K); assay = binding; system = Sinorhizobium meliloti; Kd = 14 ± 5 µM
SMILES = CN(CC(=O)O)C(=N)NP(=O)(O)O; target = CKMT1A (Homo sapiens, UniProt P12532, E265Q); assay = microscale thermophoresis; setting = pH 8.5, E227Q mutant, no substrate; Kd = 119 ± 4 µM
SMILES = O=C(O)c1ccc(O)nc1; target = 6-hydroxynicotinate 3-monooxygenase (nicC, Pseudomonas putida, UniProt Q88FY2, H47Q); assay = binding; Kd = 1100 ± 100 µM
SMILES = CSCC[C@H](NC(=O)CNC(=O)[C@H](Cc1ccccc1)NC(=O)[C@H](CC(=O)O)NC(=O)CNC(=O)c1ccc2c(c1)C(=O)OC21c2ccc(N(C)C)cc2Oc2cc(N(C)C)ccc21)C(=O)N[C@@H](CO)C(=O)N[C@@H](CCCNC(=N)N)C(=O)N[C@@H](CC(=O)O)C(=O)N[C@H](C(=O)N[C@@H](Cc1ccc(OP(=O)(O)O)cc1)C(=O)N[C@@H](CO)C(=O)N[C@H](C(=O)N[C@@H](CC(=O)O)C(=O)N[C@@H](Cc1ccc(O)cc1)C(=O)N[C@@H](Cc1ccc(O)cc1)C(=O)N[C@@H](CCCNC(=N)N)C(=O)N[C@H](C(=O)N[C@@H](CC(=O)O)C(=O)O)C(C)C)[C@@H](C)O)C(C)C; target = Crk-like protein, SH2 domain (Homo sapiens, UniProt P46109); assay = binding; Kd = 0.821 µM
SMILES = Nc1cc2nc3ccccc3nc2cc1O; target = TetR-family regulator NalD (Pseudomonas aeruginosa, UniProt Q9HY46); assay = surface plasmon resonance; setting = 25 °C; Kd = 17.6 µM
SMILES = CC(C)C[C@H](NC(=O)CNC(=O)[C@H](CCCNC(=N)N)NC(=O)c1ccc2c(c1)C(=O)OC21c2ccc(O)cc2Oc2cc(O)ccc21)C(=O)N[C@@H](Cc1c[nH]c2ccccc12)C(=O)N[C@@H](Cc1ccc(O)cc1)C(=O)N[C@@H]1CSC[C@@H](C(=O)N[C@@H](Cc2c[nH]c3ccccc23)C(=O)NCC(=O)N[C@@H](CCCNC(=N)N)C(=O)N[C@H](C(=O)NCC(=O)N[C@@H](CCCNC(=N)N)C(=O)N[C@@H](CCCNC(=N)N)C(=O)NCCCOCCOCCOCCCNC(=O)CCC(=O)NCCCOCCOCCOCCCNC(=O)CCC(=O)NCCCOCCOCCOCCCNC(=O)CCC(=O)N[C@@H](C)C(=O)O)C(C)C)NC(=O)[C@H](CO)NC(=O)[C@H](CC(C)C)NC1=O; target = srtA (Staphylococcus aureus, UniProt Q2FV99); assay = binding, fluorescence polarization; setting = pH 7.5; Kd = 11.3 ± 0.75 µM
SMILES = CC[C@H](CO)Nc1nc(NCc2ccc(-c3ccccn3)cc2)c2ncn(C(C)C)c2n1; target = CDK9 (Homo sapiens, UniProt P50750); assay = binding, competition affinity chromatography; system = SH-SY5Y cell extract; Kd = 0.449 µM
SMILES = COC(=O)C1=CCCN(C)C1; target = Acetyl-CoA acetyltransferase, mitochondrial (Homo sapiens, UniProt P24752); assay = binding, thermal shift; Kd = 33.8 ± 4.4 µM
SMILES = CC[C@H](C)[C@H](NC(=O)[C@H](CC(=O)O)NC(=O)[C@H](Cc1ccccc1)NC(=O)[C@@H](NC(=O)[C@H](CC(N)=O)NC(=O)[C@@H](NC(=O)[C@H](CC(=O)O)NC(=O)c1ccc2c(c1)C(=O)OC21c2ccc(N(C)C)cc2Oc2cc(N(C)C)ccc21)C(C)C)[C@@H](C)O)C(=O)N[C@H](C(=O)N[C@H](C(=O)N[C@@H](Cc1ccc(OP(=O)(O)O)cc1)C(=O)N[C@@H](CC(C)C)C(=O)N[C@@H](CC(C)C)C(=O)N[C@@H](CCC(N)=O)C(=O)NCC(=O)N[C@@H](CCCNC(=N)N)C(=O)N[C@@H](CCCNC(=N)N)C(=O)N[C@@H](CC(C)C)C(=O)N[C@@H](CC(=O)O)C(=O)O)C(C)C)[C@@H](C)O; target = Tyrosine-protein kinase ZAP-70, SH2 domains (ZAP70, Homo sapiens, UniProt P43403); assay = binding; Kd = 0.297 µM
SMILES = CC[C@H](C)[C@H](NC(=O)[C@H](CCC(N)=O)NC(=O)[C@@H](NC(=O)[C@@H]1CCCN1C(=O)[C@@H](NC(=O)[C@H](CO)NC(=O)[C@H](Cc1ccccc1)NC(=O)[C@@H]1CCCN1C(=O)[C@H](CCC(N)=O)NC(=O)[C@@H](N)CCSC)[C@@H](C)CC)C(C)C)C(=O)N[C@H](C(=O)N[C@@H](CC(C)C)C(=O)N[C@@H](CCC(N)=O)C(=O)NCC(=O)N[C@@H](CO)C(=O)N[C@@H](CCCNC(=N)N)C(=O)N[C@@H](CCCNC(=N)N)C(=O)N[C@@H](CCCNC(=N)N)C(=O)N[C@@H](CCC(N)=O)C(=O)NCC(=O)N[C@@H](CCCNC(=N)N)C(N)=O)[C@@H](C)O; target = Kcnma1 (Mus musculus, UniProt Q08460); assay = ion current, blocker, inside-out patch clamp; system = Xenopus oocytes; setting = +140 mV, added: 10 µM cytosolic Ca2+; Kd = 0.25 µM
SMILES = C[S+](CC[C@H](N)C(=O)O)C[C@H]1O[C@@H](n2cnc3c(N)ncnc32)[C@H](O)[C@@H]1O (some centres unmarked); target = npmA (Escherichia coli, UniProt A8C927); Kd = ~80 µM
SMILES = N[C@@H](Cc1ccc(O)cc1)C(=O)O; target = Methyl-accepting chemotaxis protein McpA, ligand-binding domain (Bacillus velezensis, UniProt A7Z835); assay = binding, biolayer interferometry; setting = 25 °C, 1:1 binding model; Kd = 133 ± 32.8 µM
SMILES = CSCC[C@H](N)C(=O)N[C@@H](C)C(=O)N[C@@H](C)C(=O)N[C@H](C(=O)N[C@@H](C)C(=O)NCC(=O)N[C@@H](CC(C)C)C(=O)N[C@@H](Cc1ccc(O)cc1)C(=O)NCC(=O)N[C@@H](CC(C)C)C(=O)NCC(=O)N[C@@H](CCC(=O)O)C(=O)N[C@@H](CC(=O)O)C(=O)N[C@@H](CCCNC(=N)N)C(=O)N[C@@H](CCC(N)=O)C(=O)N[C@@H](Cc1c[nH]cn1)C(=O)N[C@@H](CCCNC(=N)N)C(=O)N[C@@H](CCCCN)C(=O)N[C@@H](CCCCN)C(=O)N[C@@H](CCC(N)=O)C(N)=O)C(C)C; target = Sh, DEL6-46 (Drosophila melanogaster, UniProt P08510); assay = ion current, blocker, inside-out patch clamp; setting = +30 mV; Kd = 4.6 µM
SMILES = CC[C@H](C)[C@H](NC(=O)[C@H](CC(=O)O)NC(=O)[C@H](C)NC(=O)[C@H](Cc1ccc(O)cc1)NC(=O)[C@H](CCCCN)NC(=O)c1ccc2c(c1)C(=O)OC21c2ccc(N(C)C)cc2Oc2cc(N(C)C)ccc21)C(=O)N[C@@H](CCC(=O)O)C(=O)N[C@@H](CO)C(=O)N[C@@H](CO)C(=O)N[C@@H](CC(N)=O)C(=O)N[C@@H](Cc1ccc(OP(=O)(O)O)cc1)C(=O)N[C@@H](CCSC)C(=O)N[C@@H](C)C(=O)N1CCC[C@H]1C(=O)N[C@@H](Cc1ccc(O)cc1)C(=O)N[C@@H](CC(=O)O)C(=O)N[C@@H](CC(N)=O)C(=O)N[C@@H](Cc1ccc(O)cc1)C(=O)N[C@@H](CC(=O)O)C(=O)O; target = Signal transducer and activator of transcription 2 SH2 domain; assay = binding; Kd = 1.89 µM
SMILES = COc1cc2c3cc1Oc1cc(ccc1O)C[C@@H]1c4c(cc(OC)c(O)c4Oc4ccc(cc4)C[C@@H]3N(C)CC2)CC[N+]1(C)C; target = Chrnd/Chrna1/Chrne (Mus musculus, UniProt P02716+P04756+P20782); assay = endplate current peak height, inhibitor, two-electrode voltage clamp; system = mouse hemidiaphragm; Kd = 0.04 µM
SMILES = CC[C@H](C)[C@H](NC(=O)[C@H](Cc1ccc(OP(=O)(O)O)cc1)NC(=O)[C@H](CCC(=O)O)NC(=O)[C@H](Cc1c[nH]cn1)NC(=O)CNC(=O)[C@H](CC(=O)O)NC(=O)[C@H](CO)NC(=O)[C@H](CO)NC(=O)[C@@H](NC(=O)[C@H](CO)NC(=O)[C@H](CCC(=O)O)NC(=O)c1ccc2c(c1)C(=O)OC21c2ccc(N(C)C)cc2Oc2cc(N(C)C)ccc21)C(C)C)C(=O)N[C@@H](Cc1ccc(O)cc1)C(=O)N[C@H](C(=O)N[C@@H](CC(=O)O)C(=O)N1CCC[C@H]1C(=O)N[C@@H](CCSC)C(=O)N[C@@H](CCC(N)=O)C(=O)N[C@@H](CC(=O)O)C(=O)O)C(C)C; target = Signal transducer and activator of transcription 2 SH2 domain; assay = binding; Kd = 1.58 µM
SMILES = O=C(CO)[C@@H](O)[C@H](O)[C@H](O)COP(=O)(O)O; target = pfkA (Geobacillus stearothermophilus, UniProt P00512, T156A); Kd = 520 ± 10 µM
SMILES = CC[C@H](C)[C@H](NC(=O)[C@H](CC(=O)O)NC(=O)[C@H](C)NC(=O)[C@H](Cc1ccc(OP(=O)(O)O)cc1)NC(=O)[C@H](CCCCN)NC(=O)[C@@H](NC(=O)[C@H](CC(=O)O)NC(=O)CNC(=O)[C@H](CCCCN)NC(=O)[C@H](CCSC)NC(=O)[C@H](CC(=O)O)NC(=O)[C@H](CC(C)C)NC(=O)[C@H](CCSC)NC(=O)c1ccc2c(c1)C(=O)OC21c2ccc(N(C)C)cc2Oc2cc(N(C)C)ccc21)C(C)C)C(=O)N[C@@H](CCC(=O)O)C(=O)N[C@@H](CO)C(=O)N[C@@H](CO)C(=O)N[C@@H](CC(N)=O)C(=O)N[C@@H](CC(=O)O)C(=O)O; target = Tyrosine-protein kinase Fgr, SH2 domain (FGR, Homo sapiens, UniProt P09769); assay = binding; Kd = 0.285 µM
SMILES = CC[C@H](C)[C@@H]1NC(=O)[C@H](CCCNC(=N)N)NC(=O)[C@@H]2CCCN2C(=O)[C@H](Cc2ccccc2)NC(=O)[C@H]([C@@H](C)O)NC(=O)CNC(=O)[C@H](CC(C)C)NC(=O)[C@@H]2CCCN2C(=O)[C@H]([C@@H](C)O)NC(=O)[C@H](Cc2c[nH]c3ccccc23)NC(=O)[C@H](Cc2ccc(O)cc2)NC(=O)[C@H]([C@@H](C)CC)NC(=O)[C@H]([C@@H](C)O)NC(=O)[C@H]([C@@H](C)O)NC(=O)[C@@H](Cc2ccc(O)cc2)NC(=O)CSC[C@@H](C(N)=O)NC(=O)[C@H](CCCNC(=N)N)NC1=O; target = VPS35/VPS29 (Homo sapiens, UniProt Q96QK1+Q9UBQ0); assay = binding, ITC; setting = 25 °C, heterodimer; Kd = 0.065 ± 0.005 µM
SMILES = CC(C)C[C@H](NC(=O)[C@@H](NC(=O)[C@H](CO)NC(=O)[C@H](CO)NC(=O)[C@@H](NC(=O)[C@H](CC(=O)O)NC(=O)[C@H](CC(C)C)NC(=O)[C@@H]1CCCN1C(=O)[C@H](CO)NC(=O)c1ccc2c(c1)C(=O)OC21c2ccc(N(C)C)cc2Oc2cc(N(C)C)ccc21)[C@@H](C)O)C(C)C)C(=O)N[C@@H](Cc1ccc(OP(=O)(O)O)cc1)C(=O)N[C@H](C(=O)N[C@@H](C)C(=O)N[C@H](C(=O)N[C@@H](CCC(N)=O)C(=O)N1CCC[C@H]1C(=O)N[C@@H](CC(N)=O)C(=O)N[C@@H](CCC(=O)O)C(=O)N[C@@H](CC(=O)O)C(=O)O)C(C)C)[C@@H](C)O; target = Tyrosine-protein kinase JAK2, SH2 domain (JAK2, Homo sapiens, UniProt O60674); assay = binding; Kd = 1.4 µM
SMILES = C[N+](C)(C)[C@@H](Cc1c[nH]c(=S)[nH]1)C(=O)[O-]; target = egtUBC (Streptococcus pneumoniae, UniProt A0A0H2ZQB9, T274G); assay = binding; Kd = 0.0435 µM

For quick reference, copied from above:
SMILES = N[C@@H](Cc1ccc(O)cc1)C(=O)O; target = Methyl-accepting chemotaxis protein McpA, ligand-binding domain (Bacillus velezensis, UniProt A7Z835); assay = binding, biolayer interferometry; setting = 25 °C, 1:1 binding model; Kd = 133 ± 32.8 µM
SMILES = CSCC[C@H](N)C(=O)N[C@@H](C)C(=O)N[C@@H](C)C(=O)N[C@H](C(=O)N[C@@H](C)C(=O)NCC(=O)N[C@@H](CC(C)C)C(=O)N[C@@H](Cc1ccc(O)cc1)C(=O)NCC(=O)N[C@@H](CC(C)C)C(=O)NCC(=O)N[C@@H](CCC(=O)O)C(=O)N[C@@H](CC(=O)O)C(=O)N[C@@H](CCCNC(=N)N)C(=O)N[C@@H](CCC(N)=O)C(=O)N[C@@H](Cc1c[nH]cn1)C(=O)N[C@@H](CCCNC(=N)N)C(=O)N[C@@H](CCCCN)C(=O)N[C@@H](CCCCN)C(=O)N[C@@H](CCC(N)=O)C(N)=O)C(C)C; target = Sh, DEL6-46 (Drosophila melanogaster, UniProt P08510); assay = ion current, blocker, inside-out patch clamp; setting = +30 mV; Kd = 4.6 µM
